Results from different studies.
Numbered parts are unrelated; each lists some results of a single study. Substitutions count along the parent as printed.
Sequence of UniProt Q96L34 (whole entry, looked up): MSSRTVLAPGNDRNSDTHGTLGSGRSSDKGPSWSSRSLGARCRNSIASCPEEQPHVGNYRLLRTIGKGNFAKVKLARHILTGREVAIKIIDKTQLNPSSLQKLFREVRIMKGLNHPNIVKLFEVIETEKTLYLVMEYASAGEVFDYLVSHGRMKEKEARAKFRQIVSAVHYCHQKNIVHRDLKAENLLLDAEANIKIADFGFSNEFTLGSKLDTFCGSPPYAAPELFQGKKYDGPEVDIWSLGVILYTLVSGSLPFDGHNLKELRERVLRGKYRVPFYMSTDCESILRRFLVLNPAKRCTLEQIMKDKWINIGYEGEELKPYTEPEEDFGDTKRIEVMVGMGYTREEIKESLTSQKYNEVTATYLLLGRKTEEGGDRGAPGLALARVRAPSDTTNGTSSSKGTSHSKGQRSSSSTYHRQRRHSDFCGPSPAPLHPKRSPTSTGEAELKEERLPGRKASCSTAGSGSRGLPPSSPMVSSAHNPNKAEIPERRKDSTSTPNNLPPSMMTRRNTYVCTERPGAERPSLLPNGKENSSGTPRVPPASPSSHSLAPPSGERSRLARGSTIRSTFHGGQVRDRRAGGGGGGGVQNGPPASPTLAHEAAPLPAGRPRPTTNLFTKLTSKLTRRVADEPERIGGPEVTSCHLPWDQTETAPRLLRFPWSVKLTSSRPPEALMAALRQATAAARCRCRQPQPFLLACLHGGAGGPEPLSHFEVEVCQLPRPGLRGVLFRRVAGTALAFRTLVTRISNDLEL
Sequence of UniProt P49841 (whole entry, looked up): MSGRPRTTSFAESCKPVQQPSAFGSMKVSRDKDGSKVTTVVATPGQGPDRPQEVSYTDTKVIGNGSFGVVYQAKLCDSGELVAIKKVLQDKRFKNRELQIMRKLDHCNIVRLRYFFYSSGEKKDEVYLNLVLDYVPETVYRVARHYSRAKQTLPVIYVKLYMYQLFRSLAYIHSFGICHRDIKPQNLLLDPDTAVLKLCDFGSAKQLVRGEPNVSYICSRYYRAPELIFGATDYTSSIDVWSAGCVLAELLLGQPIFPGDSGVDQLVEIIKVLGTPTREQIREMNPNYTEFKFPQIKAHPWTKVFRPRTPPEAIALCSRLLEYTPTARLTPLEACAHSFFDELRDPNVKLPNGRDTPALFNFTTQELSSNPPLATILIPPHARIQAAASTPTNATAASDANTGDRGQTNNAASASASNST
Sequence of UniProt O75460 (whole entry, looked up): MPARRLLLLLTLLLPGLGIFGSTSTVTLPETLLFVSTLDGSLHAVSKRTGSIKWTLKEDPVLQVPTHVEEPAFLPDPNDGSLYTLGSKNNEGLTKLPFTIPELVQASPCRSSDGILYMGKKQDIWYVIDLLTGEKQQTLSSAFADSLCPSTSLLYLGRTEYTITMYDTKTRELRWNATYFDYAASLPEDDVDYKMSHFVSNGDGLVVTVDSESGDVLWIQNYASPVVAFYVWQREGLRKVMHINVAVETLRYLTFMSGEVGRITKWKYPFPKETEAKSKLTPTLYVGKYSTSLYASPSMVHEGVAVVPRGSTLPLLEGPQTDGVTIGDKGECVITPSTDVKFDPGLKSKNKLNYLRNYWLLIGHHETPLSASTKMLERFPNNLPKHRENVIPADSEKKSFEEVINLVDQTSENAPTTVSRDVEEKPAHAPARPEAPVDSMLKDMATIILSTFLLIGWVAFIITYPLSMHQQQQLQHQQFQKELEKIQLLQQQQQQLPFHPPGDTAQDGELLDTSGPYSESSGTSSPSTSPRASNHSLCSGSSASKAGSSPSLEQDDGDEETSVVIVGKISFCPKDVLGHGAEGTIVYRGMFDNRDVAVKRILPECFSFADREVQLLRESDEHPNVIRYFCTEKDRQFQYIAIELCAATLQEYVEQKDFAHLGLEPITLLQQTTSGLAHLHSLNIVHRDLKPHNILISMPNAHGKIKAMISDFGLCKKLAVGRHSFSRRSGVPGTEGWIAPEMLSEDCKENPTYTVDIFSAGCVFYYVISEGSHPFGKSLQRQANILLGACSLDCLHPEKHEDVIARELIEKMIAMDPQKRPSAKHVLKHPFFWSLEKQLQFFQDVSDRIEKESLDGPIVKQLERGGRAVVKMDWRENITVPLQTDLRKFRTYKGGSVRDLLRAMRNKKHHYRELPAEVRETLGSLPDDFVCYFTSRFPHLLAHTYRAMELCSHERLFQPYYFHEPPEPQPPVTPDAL
Sequence of UniProt Q9BWU1 (whole entry, looked up): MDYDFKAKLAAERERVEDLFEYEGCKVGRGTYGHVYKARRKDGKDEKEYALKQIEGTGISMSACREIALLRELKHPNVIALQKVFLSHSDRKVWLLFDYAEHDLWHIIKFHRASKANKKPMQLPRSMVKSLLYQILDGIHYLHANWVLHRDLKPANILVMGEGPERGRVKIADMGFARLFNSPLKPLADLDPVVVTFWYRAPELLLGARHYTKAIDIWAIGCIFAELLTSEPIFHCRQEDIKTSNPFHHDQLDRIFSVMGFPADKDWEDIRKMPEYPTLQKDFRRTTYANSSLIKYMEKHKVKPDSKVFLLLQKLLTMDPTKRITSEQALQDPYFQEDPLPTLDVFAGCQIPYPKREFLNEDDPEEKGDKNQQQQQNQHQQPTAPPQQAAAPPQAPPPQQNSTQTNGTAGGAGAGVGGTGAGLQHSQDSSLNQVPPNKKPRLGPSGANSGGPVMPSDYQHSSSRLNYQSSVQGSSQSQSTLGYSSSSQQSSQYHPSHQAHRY
Sequence of UniProt Q8TF76 (whole entry, looked up): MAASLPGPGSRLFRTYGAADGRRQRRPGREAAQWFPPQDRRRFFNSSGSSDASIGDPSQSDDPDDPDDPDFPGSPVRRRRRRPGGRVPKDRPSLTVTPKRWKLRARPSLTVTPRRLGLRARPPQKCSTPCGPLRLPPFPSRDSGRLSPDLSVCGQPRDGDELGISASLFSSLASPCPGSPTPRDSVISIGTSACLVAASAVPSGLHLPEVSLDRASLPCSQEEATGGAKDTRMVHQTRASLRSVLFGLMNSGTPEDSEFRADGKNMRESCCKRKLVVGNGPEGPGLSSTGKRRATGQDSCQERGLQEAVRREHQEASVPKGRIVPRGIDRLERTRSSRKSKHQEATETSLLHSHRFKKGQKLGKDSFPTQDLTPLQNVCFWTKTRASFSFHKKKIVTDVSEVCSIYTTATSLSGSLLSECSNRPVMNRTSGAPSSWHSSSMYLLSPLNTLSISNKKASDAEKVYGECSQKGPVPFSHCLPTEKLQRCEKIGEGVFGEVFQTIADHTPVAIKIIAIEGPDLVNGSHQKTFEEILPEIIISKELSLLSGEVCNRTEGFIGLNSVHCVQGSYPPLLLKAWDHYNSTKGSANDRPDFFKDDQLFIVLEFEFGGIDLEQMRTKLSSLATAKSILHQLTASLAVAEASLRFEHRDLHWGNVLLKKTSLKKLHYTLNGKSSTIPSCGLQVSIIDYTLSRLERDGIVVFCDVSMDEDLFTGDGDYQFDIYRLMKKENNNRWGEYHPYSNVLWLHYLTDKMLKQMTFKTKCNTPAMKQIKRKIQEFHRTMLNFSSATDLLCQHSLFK
Sequence of UniProt Q09013 (whole entry, looked up): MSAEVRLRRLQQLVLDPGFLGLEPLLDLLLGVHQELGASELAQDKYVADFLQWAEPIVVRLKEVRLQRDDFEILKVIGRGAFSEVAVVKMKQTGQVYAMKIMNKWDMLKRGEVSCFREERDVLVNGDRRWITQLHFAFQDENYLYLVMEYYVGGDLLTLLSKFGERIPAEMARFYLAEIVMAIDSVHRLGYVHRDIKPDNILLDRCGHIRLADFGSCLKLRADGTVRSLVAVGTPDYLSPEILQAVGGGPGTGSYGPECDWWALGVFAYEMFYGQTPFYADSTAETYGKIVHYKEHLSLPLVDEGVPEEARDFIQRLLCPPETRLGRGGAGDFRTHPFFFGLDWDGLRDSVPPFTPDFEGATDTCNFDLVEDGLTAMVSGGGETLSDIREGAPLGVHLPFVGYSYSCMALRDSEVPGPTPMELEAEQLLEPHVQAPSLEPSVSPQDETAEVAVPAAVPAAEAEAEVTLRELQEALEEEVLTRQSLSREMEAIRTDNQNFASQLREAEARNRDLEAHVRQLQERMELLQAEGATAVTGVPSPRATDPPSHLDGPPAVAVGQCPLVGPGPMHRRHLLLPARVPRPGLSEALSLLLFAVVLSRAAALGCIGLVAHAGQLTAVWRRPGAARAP

Block 1 — target: HLF, bZIP domain (human); technique: DHFR protein complementation; matrix: yeast; relative to: wild-type JUN-FOS pair; reading: higher = stronger binding
Notes: single substitutions, most at no-binding floor
Parent: JUN, bZIP domain (human); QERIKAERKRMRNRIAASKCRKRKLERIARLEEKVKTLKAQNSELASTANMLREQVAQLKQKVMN; partner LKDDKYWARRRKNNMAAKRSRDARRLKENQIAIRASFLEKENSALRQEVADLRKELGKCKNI
Substitution	binding fitness
K34W	-1.11 natural log
E44L	-1.17 natural log
N42V	-1.49 natural log
A29P	-1.53 natural log
E32P	-1.45 natural log
L31T	-1.49 natural log
S43K	-1.23 natural log
K39H	-1.36 natural log

Block 2 — read-out: enzyme activity; action: inhibitor; concentration: 0.5 µM; relative to: control
Target: RAF proto-oncogene serine/threonine-protein kinase (RAF1, Homo sapiens, UniProt P04049)
Structure (SMILES)	remaining activity [%]
O=C(O)c1ccc2c3c1cccc3c(=O)n1c3ccccc3nc21	97.5
CN(C)c1ccc(C=C2C(=O)Nc3ccccc32)cc1	101
O=c1c2ccccc2[nH]c(=S)n1CCN1CCC(=C(c2ccc(F)cc2)c2ccc(F)cc2)CC1	96.7
COc1cc2ncnc(Nc3ccc(F)c(Cl)c3)c2cc1OCCCN1CCOCC1	90.9
COc1cc2nccc(Oc3ccc(NC(=S)NC(=O)c4ccccc4C)cc3)c2cc1OC	97
Nc1ncnc2n[nH]c(Nc3ccc(F)cc3)c12	96.7
C#Cc1cccc(Nc2ncnc3cc(OCCOC)c(OCCOC)cc23)c1	93.7
CCOC(=O)c1c(C)[nH]c(/C=C2\C(=O)Nc3ccccc32)c1C	89.6
CO[C@H]1C[C@@H]2CC[C@@H](C)[C@@](O)(O2)C(=O)C(=O)N2CCCC[C@H]2C(=O)O[C@H]([C@H](C)C[C@@H]2CC[C@@H](O)[C@H](OC)C2)CC(=O)[C@H](C)/C=C(\C)[C@@H](O)[C@@H](OC)C(=O)[C@H](C)C[C@H](C)/C=C/C=C/C=C/1C	97.2
CNC(=O)c1cc(Oc2ccc(NC(=O)Nc3ccc(Cl)c(C(F)(F)F)c3)cc2)ccn1	1.35
Cc1ccc(NC(=O)c2ccc(CN3CCN(C)CC3)cc2)cc1Nc1nc(-c2cccnc2)cs1	77.5

Block 3 — concentration: 1 µM
Structure (SMILES): O=C(NC[C@@H]1[C@H]2CN(C(=O)OCc3cc(C(F)(F)F)cc(C(F)(F)F)c3)C[C@@H]12)c1ccc2[nH]nnc2c1
target	read-out	technique	remaining binding
DYRK1B (Homo sapiens, UniProt Q9Y463)	cell-free assay	competition with immobilised ligand	86%
SRC (Homo sapiens, UniProt P12931)	cell-free assay	competition with immobilised ligand	100%
EGFR (Homo sapiens, UniProt P00533, del746-750)	cell-free assay	competition with immobilised ligand	72%
BMPR2 (Homo sapiens, UniProt Q13873)	cell-free assay	competition with immobilised ligand	90%
CDK19 (Homo sapiens, UniProt Q9BWU1)	–	competition binding	89%
HASPIN (Homo sapiens, UniProt Q8TF76)	cell-free assay	competition with immobilised ligand	84%
GSK3B (Homo sapiens, UniProt P49841)	cell-free assay	competition with immobilised ligand	98%
LIM domain kinase 2 (LIMK2, Homo sapiens, UniProt P53671)	cell-free assay	competition with immobilised ligand	83%
MARK4 (Homo sapiens, UniProt Q96L34)	cell-free assay	competition with immobilised ligand	94%
MAPK11 (Homo sapiens, UniProt Q15759)	cell-free assay	competition with immobilised ligand	100%
ERN1 (Homo sapiens, UniProt O75460)	cell-free assay	competition with immobilised ligand	77%
DMPK (Homo sapiens, UniProt Q09013)	cell-free assay	competition with immobilised ligand	94%

Block 4 — technique: RNA Bind-n-Seq; form: RNA; matrix: in vitro; concentration: not given; relative to: input RNA pool; reading: higher = stronger binding
Target: RING finger protein unkempt homolog, zinc fingers 1-6, GST-SBP tag (UNK, Homo sapiens, UniProt Q9C0B0, residues 30-357)
Notes: RNA with constant flanks, human and mouse sites, ends assumed
All sequences stand within: GGGAGUUCUACAGUCCGACGAUC … CAACAGAGGAUUGAGCAUCA
Construct (chain): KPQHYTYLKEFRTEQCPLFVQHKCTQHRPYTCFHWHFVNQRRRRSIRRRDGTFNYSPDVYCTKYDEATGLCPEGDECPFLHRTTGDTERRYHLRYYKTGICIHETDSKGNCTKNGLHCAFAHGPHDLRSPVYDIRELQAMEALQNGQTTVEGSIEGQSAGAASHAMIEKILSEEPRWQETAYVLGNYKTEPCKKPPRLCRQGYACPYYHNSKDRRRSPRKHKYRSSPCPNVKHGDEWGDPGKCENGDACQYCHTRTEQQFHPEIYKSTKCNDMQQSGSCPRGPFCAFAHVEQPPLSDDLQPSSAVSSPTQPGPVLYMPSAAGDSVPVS
Oligonucleotide	bound/input enrichment [ratio]
CAUGACUUAAAUAAUUCUGAAAGAGUUCAGAAAAUGAAAAACUCACAGAAACCUCAGAAGAUAGAUUCAGAAAUAAGUCCCAAGAAGGAUAAUGAAGAAUUUCUACAAAAUAAAAAAAAG	0.345
GAACUCCUCAUGCACCCUGUGCUGGAGUCCCUGAGGAAUACUGACCGGCAGUGGCUGAUUGACACCCUCUAUGCCUUCAACAGUGGCAACGUAGAGCGGUUCCAGACUCUGAAGACUGCC	0.079
AAAGCAGACAUUUAUUACAGUCCAUUCCACAAGAGGCAUCCAAACCAUGACCAAGGCAUGUGGCAUUUGGGGGAGGCAGGUUUGGAAGGCACAGAAAGAAGGAAGGAAGGAGCUGCUGCC	0.344
AGCUCUGUCUAUCCUACCAAGGAUGAGGAGAACAAUCCCCUUGAGACAGAAUAUGGCCUUUCUGUCUACAAGGAUCACCAGACCAUCACCAUCCAGGAGAUGCCGGAGAAGGCCCCAGCC	0.086
AACUCAGGAACUAUGGCAAGGAACUUUCCCCAGAUCAAAUUCUAUUAACGCUGAGAUACAAGUCAUCCAUGCACAGCCACUAUCAUACCCUUUAUUCUCACUGAAAGGCAGAACUCAGAA	0.257
CCAAGCCCUAAGGCUGAGCCUAUCCAGGAGCCUCCCACCUGUGUCCCCAAGCUCUGCAUUGGGGACUUGGACUUCUCAGACCUAGGGGAGGAUGAAGACCAGGACACACUGAAUGUGGAA	0.339
UACGUGACAAAGAAGAAAUUGGUUACAGAGCAUAAAGACACAGAGGAUUUUAGACAAGACUUCCACUCAGAGAUGUCUGGAUUUUGUAAAGCUGCUUUGAACACUUCUGCAGGGAACUCA	0.373
GUUGGAAGUCUGGUUAGAGUCCCCAGAGAGUUACUCUAAGUUAAAAUGAGCCACUGACCUUGGCUCACCUUAGAGGAAUUUCCUCGAGAACAACAGAGAUAAGAAAAGAACCGGCCUGGC	0.301

For quick reference, copied from above (block 3):
target	read-out	technique	remaining binding
DYRK1B (Homo sapiens, UniProt Q9Y463)	cell-free assay	competition with immobilised ligand	86%
HASPIN (Homo sapiens, UniProt Q8TF76)	cell-free assay	competition with immobilised ligand	84%
ERN1 (Homo sapiens, UniProt O75460)	cell-free assay	competition with immobilised ligand	77%
